# Experimental data pooled from the literature.
# Lines come from different studies, so protocols differ. Values joined by “and” are separate records of one study, mostly repeats; a detail may differ. ± gives the spread as reported. Ends that are not written are not given here.
Molecule,target or system,assay,system,conditions,measurement,result
CCN(CC)C(=S)SSC(=S)N(CC)CC,Enterovirus A71 2A protease,"enzyme activity, FRET",,,IC50,> 60000 nM
Nc1ncnc2c1ncn2[C@H]1C[C@H](O)[C@@H](COP(=O)(O)OP(=O)(O)OP(=O)(O)O)O1,"Gag-Pol polyprotein, reverse transcriptase (gag-pol, Human immunodeficiency virus type 1 group M subtype B, UniProt P04585, K653A)",substrate,,"K66A mutant, with: G:A mismatched primer template",kcat,0.0145 ± 0.003 s⁻¹
CC[C@H](C)[C@H](NC(=O)[C@H](CC(C)C)NC(=O)[C@H](Cc1c[nH]c2ccccc12)NC(=O)[C@H](CCC(N)=O)NC(=O)[C@@H](NC(=O)[C@H](Cc1ccccc1)NC(=O)[C@H](C)NC(=O)[C@H](CCCCNC(=O)COCCOCCNC(=O)COCCOCCNC(=O)CC[C@H](NC(=O)CCCCCCCCCCCCCCCCCCC(=O)O)C(=O)O)NC(=O)[C@H](CCC(N)=O)NC(=O)[C@H](C)NC(=O)[C@@H](NC(=O)[C@H](CCCCN)NC(=O)[C@H](CC(=O)O)NC(=O)[C@H](CC(C)C)NC(=O)C(C)(C)NC(=O)[C@@H](NC(=O)[C@H](CO)NC(=O)[C@H](Cc1ccc(O)cc1)NC(=O)[C@H](CC(=O)O)NC(=O)[C@H](CO)NC(=O)[C@@H](NC(=O)[C@H](Cc1ccccc1)NC(=O)[C@@H](NC(=O)CNC(=O)[C@H](CCC(=O)O)NC(=O)C(C)(C)NC(=O)[C@@H](N)Cc1ccc(O)cc1)[C@@H](C)O)[C@@H](C)O)[C@@H](C)CC)[C@@H](C)CC)C(C)C)C(=O)N[C@@H](C)C(=O)NCC(=O)NCC(=O)N1CCC[C@H]1C(=O)N[C@@H](CO)C(=O)N[C@@H](CO)C(=O)NCC(=O)N[C@@H](C)C(=O)N1CCC[C@H]1C(=O)N1CCC[C@H]1C(=O)N1CCC[C@H]1C(=O)N[C@@H](CO)C(N)=O,,,"healthy subjects, single ascending dose","5.0 mg, titre ≥1:20",treatment-induced ADA positive subjects,0%
QPLRKLCILHRNPGRCYQKIPAFYYNQKKKQCEGFTWSGCGGNSNRFKTIEECRRTCIRK (dendrotoxin I; ends and bridges not checked; cysteine pairing not given here; sequence looked up),"maxi-KCa channel, rat muscle","channel block, planar bilayer single-channel",,"460 nM, no BPTI",DTX substate probability,0.968
Cc1cc(C)n2c(Nc3ccc4c(c3)OCCO4)c(-c3cccc(Br)c3)nc2n1,hemagglutinin H7 (influenza A virus),pseudovirus entry,A549,,EC50,250 ± 130 nM
CC(=O)N[C@H]1[C@H]([C@H](O)[C@H](O)CO)OC(C(=O)O)=C[C@@H]1N=C(N)N,neuraminidase N1 swine influenza,,"influenza A virus, swine strains",mean,IC50,0.26 nM
CCC(C)SSc1ncc[nH]1 (stereo not drawn),Enterovirus A71 3C protease,"enzyme activity, FRET",,,IC50,> 60000 nM
Cc1oc(-c2cccc(Cl)c2)nc1CN1CCCC(C(=O)NCCc2ccc(Cl)cc2)C1 (stereo not drawn),SARS-CoV-2,cytopathic effect,USA_WA1/2020,"round 1, 5-point",maximum response,43.8%
Cn1cnc(Cn2c(=O)[nH]/c(=N\c3cc4cn(C)nc4cc3Cl)n(Cc3cc(F)c(F)cc3F)c2=O)n1,,,"human, moderate renal impairment, plasma","oral, 375 mg single dose, 3 h",unbound fraction,0.0125
COc1ccc2cc3[n+](cc2c1OC)CCc1cc2c(cc1-3)OCO2,SARS-CoV-2 envelope protein,,Vero C1008,2.5 µg/mL,inhibition,12.5 ± 0.8%
CC(C)(C)[C@H](NC(=O)C(F)(F)F)C(=O)N1C[C@H]2[C@@H]([C@H]1C(=O)N[C@H](C#N)C[C@@H]1CCNC1=O)C2(C)C,,,"human, fasted","oral, 1500 mg single dose, 28 days, no ritonavir",participants with severe adverse events,0%
CC(=O)c1ccc(NC(=O)c2sc3nc4c(cc3c2N)CCCC4)cc1,PrP^Sc,prion propagation,"ScN2a-cl3 cells, dividing",,EC50,> 10000 nM
GsMTx4,"stretch-activated cation channel, rat","ion current, outside-out patch clamp",rat astrocytes,"5 µM, applied 1 s after pressure onset, -50 mV, 29 steps",current decay time constant,594 ± 10 ms
CC[C@@]1(O)C[C@H](O[C@H]2C[C@H](N(C)C)[C@H](O[C@H]3C[C@H](O)[C@H](O[C@H]4CCC(=O)[C@H](C)O4)[C@H](C)O3)[C@H](C)O2)c2c(cc3c(c2O)C(=O)c2c(O)cccc2C3=O)[C@H]1C(=O)OC,"SARS-CoV-2 NSP7, NSP8 and RdRp",,SARS-CoV-2,"0.4 µM, 24 h, with: ET-770 30 nM",protein expression,no effect
CCC(CC)[C@H](NC(C)=O)[C@@H]1[C@H](O)[C@@H](C(=O)O)C[C@H]1N=C(N)N,neuraminidase N1 swine influenza,,"influenza A virus, swine strains",mean,IC50,0.22 nM
CC[C@H](C)[C@H](NC(=O)[C@H](CC(C)C)NC(=O)[C@H](Cc1c[nH]c2ccccc12)NC(=O)[C@H](CCC(N)=O)NC(=O)[C@@H](NC(=O)[C@H](Cc1ccccc1)NC(=O)[C@H](C)NC(=O)[C@H](CCCCNC(=O)COCCOCCNC(=O)COCCOCCNC(=O)CC[C@H](NC(=O)CCCCCCCCCCCCCCCCCCC(=O)O)C(=O)O)NC(=O)[C@H](CCC(N)=O)NC(=O)[C@H](C)NC(=O)[C@@H](NC(=O)[C@H](CCCCN)NC(=O)[C@H](CC(=O)O)NC(=O)[C@H](CC(C)C)NC(=O)C(C)(C)NC(=O)[C@@H](NC(=O)[C@H](CO)NC(=O)[C@H](Cc1ccc(O)cc1)NC(=O)[C@H](CC(=O)O)NC(=O)[C@H](CO)NC(=O)[C@@H](NC(=O)[C@H](Cc1ccccc1)NC(=O)[C@@H](NC(=O)CNC(=O)[C@H](CCC(=O)O)NC(=O)C(C)(C)NC(=O)[C@@H](N)Cc1ccc(O)cc1)[C@@H](C)O)[C@@H](C)O)[C@@H](C)CC)[C@@H](C)CC)C(C)C)C(=O)N[C@@H](C)C(=O)NCC(=O)NCC(=O)N1CCC[C@H]1C(=O)N[C@@H](CO)C(=O)N[C@@H](CO)C(=O)NCC(=O)N[C@@H](C)C(=O)N1CCC[C@H]1C(=O)N1CCC[C@H]1C(=O)N1CCC[C@H]1C(=O)N[C@@H](CO)C(N)=O,,,"human, plasma","subcutaneous, 5.0 mg once weekly, week 7, multiple doses",terminal half-life,139 h
CC(C)=CC[C@@H](O)C1=CC(=O)c2c(O)ccc(O)c2C1=O,Enterovirus A71 2A protease,"enzyme activity, FRET",,,IC50,> 60000 nM
CC(Nc1nc(N2CCNCC2C)nc2ccccc12)c1ccccc1 (stereo not drawn),SARS-CoV-2,cytopathic effect,USA_WA1/2020,retest 8-point,maximum response,84.4%
C=C(C)[C@@H]1CC[C@]2(C(=O)Nc3ccc4ccccc4c3)CC[C@]3(C)[C@H](CC[C@@H]4[C@@]5(C)CC[C@H](O[C@@H]6O[C@H](CO)[C@@H](O[C@@H]7O[C@@H](C)[C@H](O)[C@@H](O)[C@H]7O)[C@H](O)[C@H]6O[C@@H]6O[C@@H](C)[C@H](O)[C@@H](O)[C@H]6O)C(C)(C)[C@@H]5CC[C@]43C)[C@@H]12,SARS-CoV-2 Omicron spike glycoprotein,,"spike-expressing cells, SARS-CoV-2 Omicron",10 µM,cell-cell fusion inhibition,inhibited
O=c1c2ccccc2[se]n1-c1ccccc1,Enterovirus A71 2A protease,"enzyme activity, FRET",,,IC50,> 60000 nM
C[C@H](C(=O)N[C@H]1COc2ccccc2[C@@H]1S(C)(=O)=O)c1ccc(F)cc1,"strychnine-sensitive glycine receptor, rat",binding,,"10 µM, Eurofins selectivity panel",inhibition,-12%
Nc1ncnc2c([C@@H]3N[C@H](CO)[C@@H](O)[C@H]3O)c[nH]c12,Marburg virus,,"HeLa, Musoke","0.8 µM, 1 h",viral RNA copies,2.58e+07 copies/mL
oseltamivir,"neuraminidase, influenza A/Texas/37/2024 (H5N1)","enzyme activity, inhibitor",,,IC50,3.19 ± 0.72 nM
CNC(=O)[C@@H](NC(=O)[C@H](CC(C)C)[C@H](O)C(=O)NO)C(C)(C)C,snake venom metalloproteinase,"proteolytic activity, inhibitor","Daboia russelii, venom RJ",with: azocasein,IC50,1440 nM and 1990 nM and 1570 nM

# Excerpt of the above:
Molecule,target or system,assay,system,conditions,measurement,result
C=C(C)[C@@H]1CC[C@]2(C(=O)Nc3ccc4ccccc4c3)CC[C@]3(C)[C@H](CC[C@@H]4[C@@]5(C)CC[C@H](O[C@@H]6O[C@H](CO)[C@@H](O[C@@H]7O[C@@H](C)[C@H](O)[C@@H](O)[C@H]7O)[C@H](O)[C@H]6O[C@@H]6O[C@@H](C)[C@H](O)[C@@H](O)[C@H]6O)C(C)(C)[C@@H]5CC[C@]43C)[C@@H]12,SARS-CoV-2 Omicron spike glycoprotein,,"spike-expressing cells, SARS-CoV-2 Omicron",10 µM,cell-cell fusion inhibition,inhibited
